Measured values gathered from unrelated publications.
A part holds a random share of what one study measured. Positions count from the first letter of the parent shown.

Set 1 — method: DHFR PCA, deep sequencing; sample: yeast; together with: (+)-ABA 0 µM; relative to: wild-type fitted maximum; reading: higher = stronger binding
Target: ABI1, truncated, D143A, DHFR fusion (Arabidopsis thaliana)
Setting: methotrexate growth selection, single substitutions
Parent: PYL1, truncated, DHFR fusion (Arabidopsis thaliana); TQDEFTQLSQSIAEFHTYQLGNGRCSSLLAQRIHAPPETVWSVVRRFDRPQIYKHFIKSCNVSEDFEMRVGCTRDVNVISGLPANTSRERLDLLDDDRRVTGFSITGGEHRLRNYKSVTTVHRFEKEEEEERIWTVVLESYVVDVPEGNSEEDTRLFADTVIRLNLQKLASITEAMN; partner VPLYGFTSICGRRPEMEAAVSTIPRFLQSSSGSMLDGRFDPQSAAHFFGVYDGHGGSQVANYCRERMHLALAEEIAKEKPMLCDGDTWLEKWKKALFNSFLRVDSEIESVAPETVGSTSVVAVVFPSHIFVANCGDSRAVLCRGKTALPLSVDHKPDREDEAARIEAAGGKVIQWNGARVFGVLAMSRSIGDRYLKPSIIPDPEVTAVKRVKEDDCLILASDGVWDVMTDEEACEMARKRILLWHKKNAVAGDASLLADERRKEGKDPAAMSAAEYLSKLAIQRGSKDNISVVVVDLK
Substitution | relative binding score [%]
K116G | 10.6
V118P | -1.54
M68T | 4.48
G81N | 26
M176C | 6.68
Y18I | 5.45
L166K | 1.47
V137N | -0.746
C25K | -0.134
E64F | 0.188
Q31T | 1.78
T173L | -1.56
Y141A | 4.73
S171W | 9.95
S150R | 8.04
S80M | 40.4
R49F | 1.93
E147T | 4.87
P37H | 0.138

Set 2 — method: protein-binding microarray; molecule type: double-stranded DNA, one strand shown; sample: in vitro; concentration: 250 nM; setting: 60-bp whole probe; together with: salmon DNA 0.4 mg/ml; relative to: random background probes; reading: higher = stronger binding; constant ends, left off below: GCCTAGCAC … GTCTTGATTCGCTTGACGCTGCTG
Target: Interferon regulatory factor 5, full length, phosphomimetic (IRF5, Homo sapiens, UniProt Q13568-2, residues 1-514, K96S/S451D/S453D/S456D/S462D)
Strand | log fluorescence [z-score]
TTAGATATCAGACTGGGTTAGTGCTAG | 0.163
GACGGTAGCGGGTATCGGGACGTGCTA | 0.375
GACAATATCGGGACTGGAGACGTGCTA | 1.32
CACGGTTTCCTACTGCTGACGTGCTAG | 0.372
CAGAAGTTCATGTTCAACCAGTGCTAG | -0.0659
TGTTTCCTCTTTCTTTGCTTGTGCTAG | 2.02
ACCTTTGTTTTTTTCTATATGTGCTAG | 1.98
TTAGATTTCAGTCTCGATAAGTGCTAG | 2.99
TCAATTTTTACCCTCCTACTGTGCTAG | 0.565
GACCGTATCGGGTTTCGGGACGTGCTA | 4.61
TTAGGTTGCGGGTTTCGGTTAGTGCTA | 7.33
TTAGGTTTTGGGTTTCGGTTAGTGCTA | 7.77
GACGGACTGGACAATGGGGACGTGCTA | -0.234
TTAGGTCTCGTTATCGGTTAGTGCTAG | 5.09
TTATGACTGCTACTGCTTTAGTGCTAG | -0.0264
TGTGTTTTCATTTTATGACAGTGCTAG | 3.01
GATGATTTCAGTCTCGAGACGTGCTAG | 1.86

Set 3 — method: RNA Bind-n-Seq; molecule type: RNA; sample: in vitro; concentration: not given; relative to: input RNA pool; reading: higher = stronger binding
Target: RING finger protein unkempt homolog, zinc fingers 1-6, GST-SBP tag (UNK, Homo sapiens, UniProt Q9C0B0, residues 30-357)
Sequence of UniProt Q9C0B0 (30-357, looked up): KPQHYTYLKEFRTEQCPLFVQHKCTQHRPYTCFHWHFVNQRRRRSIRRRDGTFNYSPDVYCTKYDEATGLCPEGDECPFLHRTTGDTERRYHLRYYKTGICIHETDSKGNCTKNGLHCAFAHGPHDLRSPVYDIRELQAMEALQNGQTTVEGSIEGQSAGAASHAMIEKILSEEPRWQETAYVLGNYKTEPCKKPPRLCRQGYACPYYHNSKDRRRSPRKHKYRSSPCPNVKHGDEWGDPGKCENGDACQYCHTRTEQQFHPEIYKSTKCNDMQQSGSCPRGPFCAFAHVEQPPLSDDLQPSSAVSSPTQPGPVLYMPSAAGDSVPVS
Setting: RNA with constant flanks, human-mouse chimeric sites, ends assumed
Strand | bound/input enrichment [ratio]
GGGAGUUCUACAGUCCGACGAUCUUCCCAACCUCCCGCCUCACCCCACCCCCGCUUUUUGAAAGUGUGUUGGCGUUUCUUUUCCUUCCCCAUACAAAGUGAUUACAGUUUCCCCCGCAAGGGUCUAUCGAAGGGCUUGACGGACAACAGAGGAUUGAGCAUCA | 0.622
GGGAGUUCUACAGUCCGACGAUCUUUGUAUUUAUGCUAAGCACACGUGCUGGUGGUCUGGGCAUCAAUCUUGCAACUGCUGAUGUAGUAAUUUUAUAUGACUCAGAUUGGAAUCCCCAAGUUGAUCUUCAGGCUAUGGACCGUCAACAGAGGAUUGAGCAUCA | 0.296
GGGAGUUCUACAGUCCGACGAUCGGUGGGGUGGUCAUUGCCGUUUGAGCUGCUGAUUUUCAUGAGUCGCCUUCAAAACUCUCGCAUAGGGUUGACAAUGUGGGGGGGUGGGGGAUCCAGCUUAUUCUUUUUCCCCAGCCCCCACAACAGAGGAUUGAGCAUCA | 2.58
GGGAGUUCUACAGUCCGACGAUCCUUAUGGCUGCAGAAACAGGAAGUGGAAAAACUGGUGCAUUUAGUAUUCCCGUUAUCCAGAUAGUGUAUGAAACUCUGAAAGACCAACAGGAAGGCAAGAAAGGGAAAACAACUAUUAAACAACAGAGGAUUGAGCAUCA | 0.75
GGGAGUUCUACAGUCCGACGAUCUAAAUUAGGGCUGCCGUUUUCUGUUUCUCCCUGGGCUGCGGAAAGCCAGAAGAUUUUAUCUAGCUUAAACCAGGCUGCUGGUGUUCCCUCUUUUUUUCCACGAGGGUGUUUUUGGCUGCACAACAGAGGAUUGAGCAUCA | 0.775
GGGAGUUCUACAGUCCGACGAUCGGACAUCUGUCAAAUUGUUAUGUUCCUGUGAAACAAGUGAACACUCUGAUACACUUCAUUUAGUUGUACAUCUGUAUGAUAGAGAAAUGUAAAUAUGUUAAUCCAAGAUGAAUUCAACUUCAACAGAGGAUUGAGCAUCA | 0.308
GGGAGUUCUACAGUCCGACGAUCGUUCGACUCUGGGAUCAUGCCACAAUGACAGAAGUGAAAUCUCUGAAUUUUAAUAUGUCUGUUAGCAGCAUGGAGUAUAUUCCUGAAGGAGAGAUUUUGGUUAUUACUUAUGGACGAUCUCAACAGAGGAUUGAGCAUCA | 0.244
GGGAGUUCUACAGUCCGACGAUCUGUGCAUAUGAUGCUUGGAGAUGGUUUUGCAAAAGCAGACAUCGCUGCAAGGUAAUCACAAUAGAUAAAAGUGGUAUUUUAAACCUUUGAAAUAAAUGGAUGUAACUGUACCUUGGUACACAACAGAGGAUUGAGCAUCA | 0.661
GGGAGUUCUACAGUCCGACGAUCAAAGAACCUCUCUCUGAUGAAGAUGAGGAAGACAAUGAUGAUGUUGAACCUAUUACUGAAUUUAGAUUUGUGCCCAGUGAUAAGUCAGCAUUGGAGGCGAUGUUCACAGCAAUGUGUGAGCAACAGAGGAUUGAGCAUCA | 0.946
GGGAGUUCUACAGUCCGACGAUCAUGGUUGUGUCUCUUGAGAUCUAAAAAAAACAUGAUUUUUCCUGGCACAUAUUCCAAAGCAAAGACUUUGUUGCCUGCUGCUUAUUGUCUAAUUUACAGGGAUAUUUAAUUUUGUCAGGUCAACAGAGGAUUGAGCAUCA | 0.214
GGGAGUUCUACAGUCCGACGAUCUGUGCAUAUGAUGCUUGAGAUGGUUUUUGCAAAAGCAGACAUCGCUGCAAGGUCAUUACAAUAGAUAAAAGUGGUAUUUUAAACCUUUGAAAUAAAUGGAUGUAACUGUACCUUGGUACACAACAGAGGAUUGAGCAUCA | 0.394

Set 4 — method: protein binding microarray; molecule type: double-stranded DNA, one strand shown; sample: in vitro; concentration: not given; relative to: not given; reading: higher = stronger binding
Target: Histone acetyltransferase KAT6A, both winged helices, GST fusion (KAT6A, Homo sapiens, UniProt Q92794, residues 1-181)
Setting: 8-mer, flanks averaged, mean of 2 arrays, mostly near background
Residues (chain): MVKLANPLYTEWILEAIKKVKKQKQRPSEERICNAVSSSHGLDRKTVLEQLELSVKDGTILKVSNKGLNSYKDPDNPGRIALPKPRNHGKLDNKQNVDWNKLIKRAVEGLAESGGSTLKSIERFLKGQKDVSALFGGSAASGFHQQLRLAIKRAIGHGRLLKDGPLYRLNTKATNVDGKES
Strand | E-score
AACTGGGC | -0.192
AGGGCGAG | -0.0347
ACTTGGCT | -0.254
CCTCTGGC | -0.203
CGTCTCGA | 0.0857
CTTTCACA | -0.0562
ACACATGC | 0.0253
ACTCCTAG | -0.136
GCCATCAA | -0.0683
AAAACTGG | -0.108
CGCCGCCG | 0.365
AAGGGACG | 0.0451
AAACCCAA | -0.244
AATCCCTA | -0.0571
CAAGAACA | -0.141
ACCTTAGG | -0.0128

Set 5 — method: aptamer microarray, sandwich; molecule type: DNA with 2'F-ANA; sample: in vitro; concentration: 200 nM; together with: Cy3 exosite-II aptamer, 400 nM; reading: higher = stronger binding; strand: GGTTGGTGTGGTTGG
Target: Prothrombin, mature alpha-thrombin (F2, Homo sapiens, UniProt P00734)
Setting: whole 15-mer aptamer, many near background
Modification | mean fluorescence intensity [a.u.]
2'F-ANA at 4 6 7 9 11 12 | 354
2'F-ANA at 2 3 5 9 13 15 | 70.1
2'F-ANA at 1 3 4 5 6 8 10 14 | 69.3
2'F-ANA at 1 9 11 13 14 | 50.4
2'F-ANA at 3 4 6 7 10 11 12 13 14 15 | 174
2'F-ANA at 4 5 6 9 11 12 13 14 | 48.2
2'F-ANA at 2 4 6 9 10 11 12 13 15 | 91.4
2'F-ANA at 2 6 7 8 9 14 15 | 135
2'F-ANA at 1 4 5 6 10 | 99.8
2'F-ANA at 1 2 4 6 9 10 11 15 | 60.7
2'F-ANA at 1 3 4 5 9 10 12 14 15 | 46.5
2'F-ANA at 1 3 4 5 7 8 9 11 12 15 | 133
2'F-ANA at 1 2 3 4 6 8 9 13 14 15 | 59
2'F-ANA at 2 8 9 11 12 13 14 | 219
2'F-ANA at 5 9 10 11 12 13 15 | 118
2'F-ANA at 2 3 4 9 10 11 12 13 15 | 235

Set 6 — target: CCNB1, cyclin fold, Cln2 fusion (human); method: yeast growth competition, sequencing; sample: yeast; setting: strong parent motif; relative to: not given; reading: higher = stronger binding
Parent: E2F1 docking peptide (human); PPVKRRLDFETDH
Substitution | normalised enrichment score
PPVCRRLDFETDH [K4C] | 5.03
PPVKERLDFETDH [R5E] | 0.237
PPVKRRLHFETDH [D8H] | 4.35
PPVKRTLDFETDH [R6T] | 2.52
PIVKRRLDFETDH [P2I] | 4.56
PPVKRRLDFEIDH [T11I] | 4.91
PLVKRRLDFETDH [P2L] | 4.38
PPVKRSLDFETDH [R6S] | 3.52
PPVKRRLDFYTDH [E10Y] | 4.11
PPVKDRLDFETDH [R5D] | 0.294
PPVKYRLDFETDH [R5Y] | 1.01
PPVKRRLDFEPDH [T11P] | 5.03
PPVKRRLDIETDH [F9I] | 0.781
PPVKNRLDFETDH [R5N] | 0.991
PPVKARLDFETDH [R5A] | 1.79
PPVKRRLWFETDH [D8W] | 4.84
PPVKRRLDFETCH [D12C] | 4.74
PPVKRRLDNETDH [F9N] | 0.176
PPYKRRLDFETDH [V3Y] | 1.81
PPVKRRLDFEFDH [T11F] | 5.29
PPVKRRLDFETAH [D12A] | 5.1
PPVKRFLDFETDH [R6F] | 2.65
PPVKRRLDFKTDH [E10K] | 3.68
PPVERRLDFETDH [K4E] | 5.23
PPVKRRLMFETDH [D8M] | 4.65

For quick reference, copied from above (set 5):
Modification | mean fluorescence intensity [a.u.]
2'F-ANA at 2 8 9 11 12 13 14 | 219
2'F-ANA at 1 2 3 4 6 8 9 13 14 15 | 59
2'F-ANA at 3 4 6 7 10 11 12 13 14 15 | 174
2'F-ANA at 1 3 4 5 7 8 9 11 12 15 | 133
2'F-ANA at 2 3 5 9 13 15 | 70.1
2'F-ANA at 2 6 7 8 9 14 15 | 135
2'F-ANA at 1 2 4 6 9 10 11 15 | 60.7
2'F-ANA at 1 3 4 5 6 8 10 14 | 69.3
2'F-ANA at 4 6 7 9 11 12 | 354
2'F-ANA at 1 9 11 13 14 | 50.4
2'F-ANA at 1 4 5 6 10 | 99.8
2'F-ANA at 2 4 6 9 10 11 12 13 15 | 91.4
2'F-ANA at 5 9 10 11 12 13 15 | 118
2'F-ANA at 4 5 6 9 11 12 13 14 | 48.2
